Results from different studies.
Several values in a cell are separate wells, animals, samples, runs or records.
Target: Serine/threonine-protein kinase Nek1 (NEK1, Homo sapiens, UniProt Q96PY6)

SMILES	read-out	action	method	tested at	baseline	measurement	result
CN1CC[C@@H](COc2cnc(C#N)cc2-c2ccn3nc(NC(=O)C4CC4)cc3c2)C1	enzyme activity	inhibitor		1 µM		inhibition	-1%
COc1ccc(C(=O)/C=C/c2ccccc2-c2c[nH]c3ccc(C#N)cc23)c(O)c1	enzyme activity	inhibitor		20 µM		inhibition	-3%
COCC12C(=O)NC3C4(C(OC)CC1O)C1CC5(O)C(OC)C(O)C(OC(C)=O)(C1C5OC(=O)c1ccccc1)C3(O)C(OC)C24 (stereo not shown)	kinase activity	inhibitor	ProQinase kinase profiling	25 µM	control	remaining activity	103% and 92%
C=CC(=O)N1CCCC(n2c(=O)c3ncccc3n(Cc3ccc(Oc4ccccc4)cc3)c2=O)C1 (stereo not shown)	cell-free assay		competition with immobilised ligand	1 µM		remaining binding	93%
O=C(Cc1ccc(OCc2ccccc2)cc1)NC1(C(=O)O)CCN(C(=O)c2ccc(-c3cccc(Cl)c3)cc2)CC1	enzyme activity	inhibitor		10 µM		activity vs control	116%
Nc1ncc2c(n1)-c1c([nH]c3ccc(C4=CCOCC4)cc13)CCC2	binding		competition with immobilised ligand	1 µM		remaining binding	100%
C[C@H](c1ccccc1)N1C(=O)C2=Nc3cccc(Cl)c3CN2C1=S	enzyme activity	inhibitor		1.5 µM		inhibition	≥ 85%
C=CC(=O)N1CCc2ccc(-n3c(=O)ccc4cnc5ccc(-c6cnn(C)c6)cc5c43)cc21			KINOMEscan	1 µM	DMSO control	remaining binding	95%
C=CC(=O)Nc1cccc(-c2cnc3[nH]cc(C(=O)NC(C)(C)C)c3n2)c1	kinase activity			0.1 µM		inhibition	28% and 29%
CNC(=O)C[C@H](Cc1ccc(C#N)cc1)NC(=O)c1cc(-c2ccc(CN[C@H](C)c3ccc(C)cc3)o2)ccc1Cl	enzyme activity	inhibitor		1 µM		activity vs control	95%
COc1cc(-n2cc3cc(F)cc(C(N)=O)c3n2)cc(Cl)c1C1CC(O)(CCO)Cc2ccccc21 (stereo not shown)	enzyme activity	inhibitor		10 µM		inhibition	3.2%
COc1cc(Nc2nccc(-c3cnn4nc(OC)ccc34)n2)cc(C(F)(F)F)c1	binding		competition with immobilised ligand	1 µM		remaining binding	100%
Cc1cccc(O[C@H]2CCC[C@@H](C(C)CNCc3ccncc3)C2)c1 (relative stereo)	enzyme activity	inhibitor		10 µM		inhibition	-8%
C=CC(=O)N1Cc2nc(-c3cc(-c4cc(Cl)cnc4Cl)c(F)cc3F)n(-c3ccncn3)c2C1	cell-free assay	inhibitor		1 µM		inhibition	2%
COc1c(Cl)cccc1Nc1c(-c2ccncc2C#C[C@@]2(C)CCCN2C(=O)/C=C/CN(C)C)[nH]c2c1C(=O)NCC2	binding		competition with immobilised ligand	3 µM		remaining binding	72%
NC(=O)[C@@H](O)C[C@H]1CCc2sc3ncnc(O[C@H]4CC[C@H](N5CCOCC5)CC4)c3c21	enzyme activity	inhibitor		10 µM		inhibition	-14%

Excerpt of the above:
SMILES	read-out	action	method	tested at	baseline	measurement	result
C[C@H](c1ccccc1)N1C(=O)C2=Nc3cccc(Cl)c3CN2C1=S	enzyme activity	inhibitor		1.5 µM		inhibition	≥ 85%
C=CC(=O)N1CCc2ccc(-n3c(=O)ccc4cnc5ccc(-c6cnn(C)c6)cc5c43)cc21			KINOMEscan	1 µM	DMSO control	remaining binding	95%
C=CC(=O)Nc1cccc(-c2cnc3[nH]cc(C(=O)NC(C)(C)C)c3n2)c1	kinase activity			0.1 µM		inhibition	28% and 29%
